# Assay results from different studies.
# Protocols differ between the studies behind these lines. Numbers after ± are the reported error.
Compound,target or system,test,test system,setting,endpoint,result
CC[C@H](C)[C@@H]([C@@H](CC(=O)N1CCC[C@H]1[C@H](OC)[C@@H](C)C(=O)N[C@H](C)[C@@H](O)c1ccccc1)OC)N(C)C(=O)[C@@H](NC(=O)[C@H](C(C)C)N(C)C(=O)OCc1ccc(NC(=O)[C@H](CCCNC(N)=O)NC(=O)[C@@H](NC(=O)CCCC(=O)NCCC(=O)N(C)CC(=O)N(C)CC(=O)N(C)CC(=O)N(C)CC(=O)N(C)CC(=O)N(C)CC(=O)N(C)CC(=O)N(C)CC(=O)N(C)CC(=O)N(C)CC(=O)N[C@H]2CSCCC(=O)N3CN4CN(C3)C(=O)CCSC[C@H](NC(=O)[C@@H](CC(=O)O)NC(=O)[C@H](Cc3cccc5ccccc35)NC(=O)[C@@H]3CCCN3C2=O)C(=O)N[C@@H](CCSC)C(=O)N[C@@H](CCCCNC(=N)N)C(=O)N[C@@H](CC(=O)O)C(=O)N[C@@H](Cc2c[nH]c3ccccc23)C(=O)N[C@@H](CO)C(=O)N[C@@H]([C@@H](C)O)C(=O)N2CCC[C@H]2C(=O)N2C[C@H](O)C[C@H]2C(=O)N[C@@H](Cc2c[nH]c3ccccc23)C(=O)N[C@H](C(N)=O)CSCCC4=O)C(C)C)cc1)C(C)C,,plasma protein binding,human plasma,"2 µM, 2.5 h, pH 7.4",fu,0.207
CC[C@H](C)[C@H](NC(=O)CNC(=O)[C@H](C)N)C(=O)NCC(=O)N[C@@H](C)C(=O)N[C@H](C(=O)N[C@@H](CC(C)C)C(=O)N[C@@H](CCCCN)C(=O)N[C@H](C(=O)N[C@@H](CC(C)C)C(=O)N[C@H](C(=O)N[C@H](C(=O)NCC(=O)N[C@@H](CC(C)C)C(=O)N1CCC[C@H]1C(=O)N[C@@H](C)C(=O)N[C@@H](CC(C)C)C(=O)N[C@H](C(=O)N[C@@H](CO)C(=O)N[C@@H](Cc1c[nH]c2ccccc12)C(=O)N[C@H](C(=O)N[C@@H](CCCCN)C(=O)N[C@@H](CCCNC(=N)N)C(=O)N[C@@H](CCCCN)C(=O)N[C@@H](CCCNC(=N)N)C(=O)N[C@@H](CCC(N)=O)C(=O)N[C@@H](CCC(N)=O)C(N)=O)[C@@H](C)CC)[C@@H](C)CC)[C@@H](C)O)[C@@H](C)O)C(C)C)C(C)C,"human erythrocytes, washed",,,"1 h, 37 °C, 2% v/v RBC suspension",HD50,1.5 ± 0.1 µmol/L
CC[C@H](C)[C@@H]1NC(=O)[C@H](CCCNC(=N)N)NC(=O)[C@H](CO)NC(=O)[C@H](CCC(=O)O)NC(=O)[C@H](CC(=O)O)NC(=O)CNC(=O)CNC(=O)[C@H]([C@@H](C)O)NC(=O)[C@H](Cc2ccccc2)NC(=O)[C@H](CO)NC(=O)[C@H]([C@@H](C)O)NC(=O)[C@H](C)NC(=O)[C@@H]2CSSC[C@@H](C(=O)N[C@@H](Cc3ccc(O)cc3)C(=O)N[C@@H](Cc3ccccc3)C(=O)N[C@H](C(=O)N[C@H](C(=O)NCC(=O)O)[C@@H](C)O)[C@@H](C)O)NC(=O)[C@H]([C@@H](C)O)NC(=O)[C@H](CSSC[C@H](NC(=O)[C@H](CCC(=O)O)NC(=O)[C@H](CO)NC(=O)[C@H](CCCCN)NC(=O)[C@H](Cc3ccc(O)cc3)NC(=O)[C@@H]3CCCN3C(=O)[C@H](Cc3ccccc3)NC(=O)[C@H](CCCCN)NC(=O)[C@H](CCCNC(=N)N)NC(=O)[C@H](CCCCN)NC(=O)[C@H](CCCCN)NC(=O)[C@H](Cc3ccc(O)cc3)NC(=O)[C@@H]3CCCN3C(=O)[C@@H](NC(=O)[C@H](CC(=O)O)NC(=O)[C@H](CCCCN)NC(=O)[C@H](CCCCN)NC(=O)[C@@H](NC(=O)[C@@H](NC(=O)[C@@H](N)CCC(=O)O)C(C)C)[C@@H](C)CC)[C@@H](C)O)C(=O)N[C@@H](CC(C)C)C(=O)N[C@@H](CCCCN)C(=O)N[C@@H](C)C(=O)N2)NC(=O)[C@H](CCCCN)NC(=O)[C@H](Cc2ccccc2)NC(=O)[C@H](Cc2ccccc2)NC(=O)CNC(=O)[C@@H]2CCCN2C(=O)[C@H](CCCCN)NC(=O)CNC(=O)[C@H](CCC(=O)O)NC(=O)[C@H](CCC(N)=O)NC1=O,"KCNQ1 (Homo sapiens, UniProt P51787)","ion current, inhibitor",,"pH 7.4, homotetrameric channel",IC50,2800 ± 500 nM
CC[C@H](C)[C@H](NC(=O)[C@H](C)NC(=O)[C@H](CCC(N)=O)NC(=O)[C@@H](NC(=O)[C@@H](NC(=O)[C@@H]1CCCN1C(=O)[C@@H]1CCCN1C(=O)[C@@H](NC(=O)[C@H](CCSC)NC(=O)[C@H](CC(C)C)NC(=O)[C@H](CC(C)C)NC(=O)[C@H](CO)NC(=O)CNC(=O)[C@H](CC(C)C)NC(=O)[C@@H](NC(=O)[C@H](CC(C)C)NC(=O)[C@H](CC(C)C)NC(=O)[C@@H]1CCCN1C(=O)[C@H](CC(C)C)NC(=O)[C@@H](N)Cc1ccccc1)[C@@H](C)CC)[C@@H](C)O)C(C)C)[C@@H](C)CC)C(=O)N[C@@H](Cc1c[nH]cn1)C(=O)N[C@@H](CC(=O)O)C(=O)N[C@@H](C)C(=O)N[C@@H](CCC(N)=O)C(=O)N[C@@H](CCCNC(=N)N)C(N)=O,"SCN2A (Homo sapiens, UniProt Q99250)","sodium current, agonist, whole-cell patch clamp",HEK293 stably expressing NaV1.2,"0.1% DMSO, hold -100 mV",EC50,410 ± 33 nM
CC=C1CN(C)C2CC3(C(=O)Nc4ccccc43)C3CC1C2CO3 (centres unmarked),,,Kunming mice both sexes,"intraperitoneal, 7 days",LD50,> 30 mg/kg
CSCC[C@H](NC(=O)[C@@H](NC(=O)[C@H](CC(=O)O)NC(=O)CNC(=O)[C@H](CC(C)C)NC(=O)[C@H](CCSC)NC(=O)[C@@H](N)CCCNC(=N)N)C(C)C)C(=O)N[C@@H](C)C(=O)N[C@H](C(=O)O)C(C)C,"HLA class I histocompatibility antigen, A alpha chain, allele A*02:01 (Homo sapiens, UniProt P04439)","binding, competitive radioligand binding",,"2 d, together with: radiolabelled reference peptide",Kd,< 25 nM
CCC1C=C(C(=O)NC2(C(=O)O)CC2CC)C2CCC(=O)C2C1 (centres unmarked),"COI1/TIFY11B (Arabidopsis thaliana, UniProt O04197+Q9C9E3)","binding, radioligand saturation binding",COI1-ASK1 complex,"Arabidopsis thaliana proteins, together with: full-length JAZ6",Kd,68 nM
CC(C)C[C@@H]1NC(=O)[C@H](CCCNC(=N)N)NC(=O)[C@@H]2CCCN2C(=O)[C@@H]2CSSC[C@H](NC(=O)CNC(=O)[C@@H]3CCCN3C(=O)[C@H](CCCCN)NC(=O)[C@H](CC(=O)O)NC(=O)[C@@H](NC(=O)CN)C(C)C)C(=O)N[C@@H](CCCNC(=N)N)C(=O)N[C@@H](Cc3ccc(O)cc3)C(=O)N[C@@H](CC(C)C)C(=O)N[C@@H](Cc3ccccc3)C(=O)NCC(=O)NCC(=O)N[C@H]3CSSC[C@H](NC(=O)CNC1=O)C(=O)N[C@@H](CCCCN)C(=O)NCC(=O)N[C@@H](CCCCN)C(=O)NCC(=O)N[C@@H](Cc1c[nH]cn1)C(=O)N[C@@H](CC(=O)O)C(=O)N[C@@H](Cc1ccc(O)cc1)C(=O)N[C@H](C(=O)N[C@@H](C)C(=O)N[C@@H](Cc1c[nH]c4ccccc14)C(=O)N[C@@H](CC(=O)O)C(=O)NCC(=O)N[C@H](C(=O)N[C@@H](Cc1ccccc1)C(=O)N[C@@H](CO)C(=O)N[C@@H](CC(=O)O)C(=O)O)[C@@H](C)O)CSSC[C@H](NC(=O)[C@H](CC(=O)O)NC(=O)[C@H](CC(=O)O)NC(=O)[C@H](CC(=O)O)NC(=O)[C@H](CO)NC(=O)[C@H](CCCCN)NC3=O)C(=O)N2,,current clamp,mouse small DRG neurons,"1 µM, 1 s current ramp",latency to first action potential,196 ± 34.8 ms

# Some of these lines once more:
Compound,target or system,test,test system,setting,endpoint,result
CC[C@H](C)[C@@H]([C@@H](CC(=O)N1CCC[C@H]1[C@H](OC)[C@@H](C)C(=O)N[C@H](C)[C@@H](O)c1ccccc1)OC)N(C)C(=O)[C@@H](NC(=O)[C@H](C(C)C)N(C)C(=O)OCc1ccc(NC(=O)[C@H](CCCNC(N)=O)NC(=O)[C@@H](NC(=O)CCCC(=O)NCCC(=O)N(C)CC(=O)N(C)CC(=O)N(C)CC(=O)N(C)CC(=O)N(C)CC(=O)N(C)CC(=O)N(C)CC(=O)N(C)CC(=O)N(C)CC(=O)N(C)CC(=O)N[C@H]2CSCCC(=O)N3CN4CN(C3)C(=O)CCSC[C@H](NC(=O)[C@@H](CC(=O)O)NC(=O)[C@H](Cc3cccc5ccccc35)NC(=O)[C@@H]3CCCN3C2=O)C(=O)N[C@@H](CCSC)C(=O)N[C@@H](CCCCNC(=N)N)C(=O)N[C@@H](CC(=O)O)C(=O)N[C@@H](Cc2c[nH]c3ccccc23)C(=O)N[C@@H](CO)C(=O)N[C@@H]([C@@H](C)O)C(=O)N2CCC[C@H]2C(=O)N2C[C@H](O)C[C@H]2C(=O)N[C@@H](Cc2c[nH]c3ccccc23)C(=O)N[C@H](C(N)=O)CSCCC4=O)C(C)C)cc1)C(C)C,,plasma protein binding,human plasma,"2 µM, 2.5 h, pH 7.4",fu,0.207
